# Measurements pooled from the literature.
# Lines come from different studies, so protocols differ. Numbers after ± are the reported error.
# rep main protease: Replicase polyprotein 1ab, main protease (rep, Severe acute respiratory syndrome coronavirus 2, UniProt P0DTD1)
# rep nsp14 N7-methyltransferase: Replicase polyprotein 1ab, nsp14 N7-methyltransferase (rep, Severe acute respiratory syndrome coronavirus 2, UniProt P0DTD1)
SMILES,tested on,assay,system,setting,measurement,value
O=C1NC(=O)C2(CC(C(=O)N3CCC[C@H]([C@H]4CCCN(C(=O)Cc5cccnc5)C4)C3)C2)N1 (stereo partly shown),rep main protease,"enzyme activity, inhibitor",,"5 µM, run 1",inhibition,10.4%
Cc1nn(-c2ccc(Cl)cc2)c2c1C(c1ccc(Cl)cc1Cl)C(C#N)=C(N)O2 (stereo not shown),rep main protease,3CL protease activity,,"0.1 µg/mL, 90 min, enzyme 100 ng/mL",inhibition,57.2%
Nc1ncnc2c([C@@H]3N[C@H](CO)[C@@H](O)[C@H]3O)c[nH]c12,Japanese encephalitis virus,"viral replication, inhibitor",Vero 76,3 µM,inhibition,2%
Cn1cc(C(=O)N2Cc3ccccc3C[C@H]2CNC(=O)c2cccc3[nH]ncc23)nn1,rep main protease,"enzyme activity, inhibitor",,"5 µM, run 2",inhibition,13.6%
CC(C)[C@H](NC(=O)OCc1ccccc1)C(=O)N[C@H](C=O)Cc1ccccc1,rep main protease,"reporter gene (Gaussia luciferase), inhibitor",,20 µM,inhibition,2.24%
CC[C@H](C)[C@H](NC(=O)[C@H](CC(C)C)NC(=O)[C@H](Cc1c[nH]c2ccccc12)NC(=O)[C@H](CCC(N)=O)NC(=O)[C@@H](NC(=O)[C@H](Cc1ccccc1)NC(=O)[C@H](C)NC(=O)[C@H](CCCCNC(=O)COCCOCCNC(=O)COCCOCCNC(=O)CC[C@H](NC(=O)CCCCCCCCCCCCCCCCCCC(=O)O)C(=O)O)NC(=O)[C@H](CCC(N)=O)NC(=O)[C@H](C)NC(=O)[C@@H](NC(=O)[C@H](CCCCN)NC(=O)[C@H](CC(=O)O)NC(=O)[C@H](CC(C)C)NC(=O)C(C)(C)NC(=O)[C@@H](NC(=O)[C@H](CO)NC(=O)[C@H](Cc1ccc(O)cc1)NC(=O)[C@H](CC(=O)O)NC(=O)[C@H](CO)NC(=O)[C@@H](NC(=O)[C@H](Cc1ccccc1)NC(=O)[C@@H](NC(=O)CNC(=O)[C@H](CCC(=O)O)NC(=O)C(C)(C)NC(=O)[C@@H](N)Cc1ccc(O)cc1)[C@@H](C)O)[C@@H](C)O)[C@@H](C)CC)[C@@H](C)CC)C(C)C)C(=O)N[C@@H](C)C(=O)NCC(=O)NCC(=O)N1CCC[C@H]1C(=O)N[C@@H](CO)C(=O)N[C@@H](CO)C(=O)NCC(=O)N[C@@H](C)C(=O)N1CCC[C@H]1C(=O)N1CCC[C@H]1C(=O)N1CCC[C@H]1C(=O)N[C@@H](CO)C(N)=O,,,"healthy subjects, single ascending dose","0.25 mg, day 29",serum AST,23 ± 5.4 U/L
O=C(NC[C@H](NC(=O)c1cncc2c1CCNC2=O)c1ccc2ccccc2c1)c1ccon1,rep main protease,"enzyme activity, inhibitor",,"5 µM, run 1",inhibition,12.1%
Clc1ccc(Cn2c(CN3CCCC3)nc3ccccc32)cc1,rep main protease,"reporter gene (mKate2), inhibitor",,20 µM,inhibition,-0.215%
COc1nc2ccc(Br)cc2cc1[C@@H](c1ccccc1)[C@@](O)(CCN(C)C)c1cccc2ccccc12,rep main protease,"enzyme activity, inhibitor, FRET",,100 µM,activity vs control,< 40%
Cn1cnc(Cn2c(=O)[nH]/c(=N\c3cc4cn(C)nc4cc3Cl)n(Cc3cc(F)c(F)cc3F)c2=O)n1,,,"human, severe renal impairment","oral, 375 mg","anaemia TEAE, Mild severity",0%
CNC(=O)c1c(NC(=O)c2sc(=S)n(-c3ccc(C)cc3)c2N)sc2c1CCCC2,rep nsp14 N7-methyltransferase,"N7-methyltransferase activity, inhibitor, Py-FLINT",,,Hill slope,1.47 ± 0.32
C=CCc1cc(OC)c2c(c1)OCO2,rep main protease,"reporter gene (mKate2), inhibitor",,20 µM,inhibition,-0.374%
O=c1oc2c(cc1O)oc(=O)c1cc(O)c(O)c(O)c12,rep nsp14 N7-methyltransferase,"N7-methyltransferase activity, inhibitor, Py-FLINT",,,Hill slope,1.07 ± 0.08
O=C(NC[C@@H]1Cc2ccccc2CN1C(=O)c1nnn2ccccc12)c1cccc2[nH]ncc12,rep main protease,"enzyme activity, inhibitor",,"5 µM, run 2",inhibition,12.8%
Cc1cnc(C(=O)N[C@H]2CCCCC/C=C\[C@@H]3C[C@@]3(C(=O)NS(=O)(=O)C3CC3)NC(=O)[C@@H]3C[C@@H](Oc4nc5ccccc5c5ccccc45)CN3C2=O)cn1,rep main protease,"reporter gene (mKate2), inhibitor",,20 µM,inhibition,0.984%
Cc1cc(-c2ccc(/N=N/c3ccc4c(S(=O)(=O)O)cc(S(=O)(=O)O)c(N)c4c3O)c(C)c2)ccc1/N=N/c1ccc2c(S(=O)(=O)O)cc(S(=O)(=O)O)c(N)c2c1O,rep nsp14 N7-methyltransferase,"N7-methyltransferase activity, inhibitor, Py-FLINT",,,Hill slope,1.21 ± 0.07
O=C(N[C@@H](CNC(=O)[C@@H]1CCCc2cn[nH]c21)c1ccc2ccccc2c1)c1cccnc1,rep main protease,"enzyme activity, inhibitor",,"5 µM, run 2",inhibition,12.5%
CCCCCCCCCC(C)CCC(C)C(=O)OCc1ccccc1 (stereo not shown),rep main protease,binding,,concentration not given,activity,inactive
CC(C)(C)OC(=O)N[C@H]1CCCCC/C=C\[C@@H]2C[C@@]2(C(=O)NS(=O)(=O)C2CC2)NC(=O)[C@@H]2C[C@@H](OC(=O)N3Cc4cccc(F)c4C3)CN2C1=O,rep main protease,"reporter gene (mKate2), inhibitor",,20 µM,inhibition,0.0466%

# A few entries again:
SMILES,tested on,assay,system,setting,measurement,value
Cc1cc(-c2ccc(/N=N/c3ccc4c(S(=O)(=O)O)cc(S(=O)(=O)O)c(N)c4c3O)c(C)c2)ccc1/N=N/c1ccc2c(S(=O)(=O)O)cc(S(=O)(=O)O)c(N)c2c1O,rep nsp14 N7-methyltransferase,"N7-methyltransferase activity, inhibitor, Py-FLINT",,,Hill slope,1.21 ± 0.07
O=C(N[C@@H](CNC(=O)[C@@H]1CCCc2cn[nH]c21)c1ccc2ccccc2c1)c1cccnc1,rep main protease,"enzyme activity, inhibitor",,"5 µM, run 2",inhibition,12.5%
